Measured values pooled from the literature.
Protocols differ between the studies behind these lines. ± gives the spread as reported.

SMILES | organism | test | system | setting | EC50
O=C(NCc1ccc(Cl)cn1)C(=O)C(Cc1ccccc1)NC(=O)C1CC(F)CN1C(=O)C(NC(=O)C1CCC(F)(F)CC1)C1CCCCC1 (stereo not drawn) | HCoV-OC43 | viral replication | – | – | 310 nM
C[C@H](NC(=O)Cc1cc(F)cc(F)c1)C(=O)N[C@@H]1C(=O)N(C)c2ccccc2-c2ccccc21 | dengue virus type 2 | viral replication, Renilla luciferase reporter virus | Huh-7.5.1 wild-type | 48 h | 50 nM
CCSC(SCC)c1ccc(OCCNS(=O)(=O)c2ccc(C)cc2)c(OC)c1 | Tobacco mosaic virus | curative activity | plant in vivo | – | 111 ± 4.3 µg/mL
COc1ccccc1-c1n[nH]c2nc(N[C@H]3CC[C@H](NS(=O)(=O)CC(C)C)CC3)ncc12 | Leishmania donovani | – | promastigotes, LdBOB CRK3 overexpressing | – | 1.3 ± 0.008 nM
COc1ccc(NC(=O)N2CCCCN3[C@H](CN(C)C)[C@H](c4ccc(C#Cc5ccccc5)cc4)[C@@H]3C2)cc1 | Toxoplasma gondii | bradyzoite growth | – | glutamine-induced bradyzoites | 78 nM
O=C(NNc1ccc(Cl)cc1)c1nnc(CC23CC4CC(CC(C4)C2)C3)o1 | Fusarium oxysporum | microbial growth | – | – | 3.4 µg/mL
CCSC(SCC)c1ccc(OCCNS(=O)(=O)c2ccc(C)cc2)cc1 | Tobacco mosaic virus | curative activity | plant in vivo | – | 998.5 ± 2.1 µg/mL
O=C(NNc1ccccc1)c1nnc(C23CC4CC(CC(C4)C2)C3)o1 | Fusarium oxysporum | microbial growth | – | – | > 25 µg/mL
CCn1cnc2c(Oc3ccc(/C=C/C(=O)c4ccc(NS(=O)(=O)c5ccccc5C)cc4)cc3)ncnc21 | tobacco mosaic virus | curative activity | in vivo plant | – | 471.5 ± 1.4 µg/mL
C[C@H](NC(=O)[C@@H](O)c1cc(F)cc(F)c1)C(=O)N[C@@H]1C(=O)N(C)c2ccccc2-c2ccccc21 | dengue virus type 2 | viral replication, Renilla luciferase reporter virus | Raji DC-SIGN | 48 h | 2.5 nM
CCC1(CC)CC(=O)N(C2c3cc(C(=O)NC4c5ccccc5CC4O)ccc3OC2(C)COC)C(=N)N1 (stereo not drawn) | Plasmodium falciparum | parasite growth | Dd2 | – | 0.5 ± 0.1 nM
COc1cc(C(SC(C)C)SC(C)C)ccc1OCCNS(=O)(=O)c1ccc(Br)cc1 | Tobacco mosaic virus | protective activity | plant in vivo | – | 252 ± 2.6 µg/mL
